Results of several laboratories.
Numbered parts are unrelated; each lists some results of a single study. Substitutions count along the parent as printed.

Sample 1 — target: CCND2, cyclin fold, Cln2 fusion (human); method: yeast growth competition, sequencing; medium: yeast; notes: weak parent motif; reference: not given; direction: higher = stronger binding
Parent: USP37 docking peptide (human); PSAKRSLGFLPQP
Variant	normalised enrichment score
PSAKRSLAFLPQP [G8A]	0.0668
PSAKRSLGALPQP [F9A]	-0.186
PSAKRALGFLPQP [S6A]	0.407
PSAKRSLGFAPQP [L10A]	0.0697
PSAKRSAGFLPQP [L7A]	-0.218
PSAKRSLGFLAQP [P11A]	-0.0494

Sample 2 — method: RNA Bind-n-Seq; molecule type: RNA; medium: in vitro; concentration: 365 nM; reference: no-protein control; direction: higher = stronger binding
Target: RNA binding protein fox-1 homolog 2, RRM domain, GST-SBP tag (RBFOX2, Homo sapiens, UniProt O43251-10, residues 100-194)
Notes: natural RNA segment, single round, ends assumed
Sequence	RBNS enrichment (R)
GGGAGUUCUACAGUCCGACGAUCUAAUAUUCCUUCUAGUCAGUGGAAAUUUGUAUUCCCAUACAAACUCAGAAUGCUAUAUUUUUAACAGCACUCCAGCAUUUUUCUUCAUGUAUCACCUUCACUGACUCCAUUGGAAUUCUCGGGUGCCAA	0.941
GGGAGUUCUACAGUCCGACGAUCUGUGCCCCACUCAUCUGGGGACAGAUGGUUUUUCUUUAUUGUAAAAUUGUGGACUUUUAAAACCUGUUGACUAAACAGUAAUUAAUUUAUAUUUGUGAAAAAUGCCACUGUGGAAUUCUCGGGUGCCAA	0.433
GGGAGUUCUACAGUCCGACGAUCCAGCCACUUGGCUGGGCAGGGAGAUAGAUAGCUUCUUCCUGCAAGCUUCCAGAAGCACGCUGUGUUCUUUUUGCCAAAUAUGUUCAGUUAUAGUCAGCUGAUAGAUUGAUUGGAAUUCUCGGGUGCCAA	0.557
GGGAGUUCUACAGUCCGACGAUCACUGCUAGUGUGAUUGGUUGAUCAGCAAAACAGCUGCUCUCAUUUUGUUUUGGAGGAACCCUGGUGGUUUGACAGCCAGGAGAAAGGCCAUAUGUGAAACCAGUCUCUUGUGGAAUUCUCGGGUGCCAA	0.619
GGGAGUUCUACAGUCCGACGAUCACUUUUGCUGAUGCUUUUGAAAAUGUUUAUGCCACAGAAUUUGCUAAUAUAUUGUAAUCACAUUCCUUAGGAGGACUUUGGUAAUUGGUUUUAUGCAUUGAUGGUUUUUUUGGAAUUCUCGGGUGCCAA	0.563
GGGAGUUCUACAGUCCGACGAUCAUACUUUCUAUUUUUUUGGUCAAAUCAUGUUUAGAAACUUUGGAUGAGUUAAGAAGUCUUAAGUAUGCAGGCGUUUACGUGAUUGUGCCAUUCCAAAGUGCAUCAGAACUUGGAAUUCUCGGGUGCCAA	2.26
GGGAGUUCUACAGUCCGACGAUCUUACUGGAAGCUUAAAAUUUGCUUCUCAGUUGGCCUUUAGAGCAAGAGUGGAAUAGCUGUUUUAUUCUUAGGUUGUAGAAUGCCUUGUAGUGCUUCAUAUACUUUGGGGAUGGAAUUCUCGGGUGCCAA	0.489
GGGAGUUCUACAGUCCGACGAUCGGAAAGCAAGGUUGCCUGGUAGCUCCAGCCCACAGUCCUCCCCUUCUGAAAGACCCACAGCGAUCUGCCUCCUCAGCAUCCAGCGUGCUGGCUCCAGAGCUGCUGUUCCCUGGAAUUCUCGGGUGCCAA	0.405
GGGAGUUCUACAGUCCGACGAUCCCAUUCUAUCUUUGUAAAACAGACAAGAUAUGCACUUGACAUAGUAGCAAAUUGGUUCUGAAUUAUGCAACUGUUUGCUAUUUAGUAAACUAGCAAAUGAUGCAUGUAUUUGGAAUUCUCGGGUGCCAA	1.22
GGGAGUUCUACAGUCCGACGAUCAAAGACAACUGACAUUUAUUGAAUAUCAUGCACUAGUCCCUUACAUAUGUCAUAUUUUAAUUAUAGAAAUCAGUAGCAAAAAGAAUCUUGGGGAUUUUCCAUCUGACUUCUGGAAUUCUCGGGUGCCAA	0.696
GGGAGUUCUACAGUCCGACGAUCUUUUCCCCCACCGCAACCUCCAUCUCCCGGGUUCAAGCAAUUCUCCUGCCUCACCCUCCCAAGUAGCUGGGAUUACAGGUGCCCACCUCCACGCCCAGCUAAUUUUUGUAUGGAAUUCUCGGGUGCCAA	0.654
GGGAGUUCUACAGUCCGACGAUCGUCAUACCCAAUGCUCAGUGGAUCAUGACCAAACUCCUGUCAUGUGGAUGCACGUGAGUGGGUAGCAGGGAGUCAGGAUCCUGCCUUCUCCAGCAACCCCUUACUGCUGUUGGAAUUCUCGGGUGCCAA	0.59

Sample 3 — method: DHFR PCA, deep sequencing; medium: yeast; added: (+)-ABA 0.11 µM; reference: wild-type fitted maximum; direction: higher = stronger binding
Target: ABI1, truncated, D143A, DHFR fusion (Arabidopsis thaliana)
Notes: methotrexate growth selection, single substitutions
Parent: PYL1, truncated, DHFR fusion (Arabidopsis thaliana); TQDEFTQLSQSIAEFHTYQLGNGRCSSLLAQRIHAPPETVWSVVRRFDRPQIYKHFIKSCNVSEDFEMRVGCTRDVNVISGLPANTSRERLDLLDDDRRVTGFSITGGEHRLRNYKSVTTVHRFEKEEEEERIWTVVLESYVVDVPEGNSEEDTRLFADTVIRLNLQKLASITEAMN
Variant	relative binding score [%]
Q2M	55.8
F5I	31.5
V78F	100
T119R	-4.87
G107H	13.2
I133F	10.3
T6F	42.2
P37Y	1.29
C25S	-1.51
D65I	0.85
A35P	-2.95
V40T	-0.586
D96P	-3.06
G71E	-10.9
G108T	-2.09
C25A	33.5
L8Q	10.4
N85C	55.2
Y53S	-1.56
N22I	29.1

Sample 4 — method: protein-binding microarray; molecule type: double-stranded DNA, one strand shown; medium: in vitro; concentration: 2200 nM top; notes: 60-bp whole probe; added: salmon DNA 0.4 mg/ml; reference: random background probes; direction: higher = stronger binding; all sequences stand within: GCCTAGCAC … GTCTTGATTCGCTTGACGCTGCTG
Target: Interferon regulatory factor 7, full length, phosphomimetic (IRF7, Homo sapiens, UniProt Q92985, residues 1-503, S471D/S472D/S475D/S476D/S477D/S483D/S484D/S487D)
Residues (chain): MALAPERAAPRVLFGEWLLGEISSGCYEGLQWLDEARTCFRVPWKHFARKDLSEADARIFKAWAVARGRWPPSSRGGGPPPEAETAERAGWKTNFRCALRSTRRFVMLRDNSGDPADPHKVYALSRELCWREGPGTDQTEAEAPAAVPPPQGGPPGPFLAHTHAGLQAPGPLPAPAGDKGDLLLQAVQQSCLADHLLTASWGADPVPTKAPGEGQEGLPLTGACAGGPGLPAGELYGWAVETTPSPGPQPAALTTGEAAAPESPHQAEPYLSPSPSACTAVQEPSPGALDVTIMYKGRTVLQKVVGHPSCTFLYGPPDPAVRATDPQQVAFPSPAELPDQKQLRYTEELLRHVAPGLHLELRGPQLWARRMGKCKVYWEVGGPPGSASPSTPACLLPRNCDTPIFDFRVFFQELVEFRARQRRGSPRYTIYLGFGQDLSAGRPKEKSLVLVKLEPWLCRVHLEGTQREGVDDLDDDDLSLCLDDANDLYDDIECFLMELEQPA
Sequence	fitted relative affinity [z-score]
TTATGTTTCGGTTTCGGTTAGTGCTAG	15.3
GACGGACTGGGACTGGGGAGGTGCTAG	-0.926
TCTGTTTTTGCTTTCTTTATGTGCTAG	4.82
GAAGGACTGCTTCTCCTGACGTGCTAG	0.551
GACGATATCAGACTGGAGATGTGCTAG	-0.159
GACGATTTCGGATTTCGAGACGTGCTA	3.8
TTAGCTATCGACTATCGGTTAGTGCTA	0.332
TTAGGTTTCGTCACTGGGTTAGTGCTA	2.05
GACGGTATCGGGACTGGGCACGTGCTA	-0.693
TATGGTATTTTTTTCTAATTGTGCTAG	1.79
GACGATATCAGTCTCCAGACGTGCTAG	0.304
GACGGACTGGGAATCGGGACGTGCTAG	-0.809
GATGAACTGAGTTTCGAGACGTGCTAG	2.12
GGAGCGCCAGGCCCCGGCAGGTGCTAG	-1.56
TTAGGGCTGGACTTTCGGTTAGTGCTA	4.06
TCACAATTCTTTTTATGACTGTGCTAG	0.772
CTTGTTCTTAGCTTGGGTCTGTGCTAG	1.1
TTCGGTTTCCTACTGCTTTAGTGCTAG	3.72
GCCGGTCTCGGTTTCGGGACGTGCTAG	3.92
GACGGTCTCGGGACTGGGGACGTGCTA	-0.411
GACGGTATCCTTTTCCTGATGTGCTAG	1.36
TCATCTTCAGCACTCGGACTGTGCTAG	1.02

Sample 5 — target: CEBPA, bZIP domain (human); method: DHFR protein complementation; medium: yeast; reference: wild-type JUN-FOS pair; direction: higher = stronger binding
Notes: single substitutions, most at no-binding floor
Parent: JUN, bZIP domain (human); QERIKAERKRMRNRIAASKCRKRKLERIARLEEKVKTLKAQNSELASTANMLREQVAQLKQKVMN; partner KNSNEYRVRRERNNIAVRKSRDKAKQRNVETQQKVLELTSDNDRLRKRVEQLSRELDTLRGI
Variant	binding fitness [natural log]
S43C	-1.36
L31T	-1.48
R30E	-1.39
S43L	-1.42
E54R	-1.36
E32L	-1.46
A46L	-1.45
Q41F	-1.56
Q55T	-1.43
I28Q	-1.34
R30S	-1.38
K36D	-1.46
A46F	-1.36
E33S	-1.44
V56R	-1.52
L52H	-1.49
E44Q	-1.43
Q55K	-1.38
L38Q	-1.58
V35L	-1.44
